Results from different studies.
Lines come from different studies, so protocols differ. Numbers after ± are the reported error.
NR3C1: Glucocorticoid receptor (NR3C1, Homo sapiens, UniProt P04150)
NMT1: Glycylpeptide N-tetradecanoyltransferase 1 (NMT1, Homo sapiens, UniProt P30419)
HSP90B1: Endoplasmin (HSP90B1, Canis lupus familiaris, UniProt P41148)

The chains behind the UniProt entries cited, without tags or fusion partners. Residues count along the entry.
UniProt P30419, whole entry: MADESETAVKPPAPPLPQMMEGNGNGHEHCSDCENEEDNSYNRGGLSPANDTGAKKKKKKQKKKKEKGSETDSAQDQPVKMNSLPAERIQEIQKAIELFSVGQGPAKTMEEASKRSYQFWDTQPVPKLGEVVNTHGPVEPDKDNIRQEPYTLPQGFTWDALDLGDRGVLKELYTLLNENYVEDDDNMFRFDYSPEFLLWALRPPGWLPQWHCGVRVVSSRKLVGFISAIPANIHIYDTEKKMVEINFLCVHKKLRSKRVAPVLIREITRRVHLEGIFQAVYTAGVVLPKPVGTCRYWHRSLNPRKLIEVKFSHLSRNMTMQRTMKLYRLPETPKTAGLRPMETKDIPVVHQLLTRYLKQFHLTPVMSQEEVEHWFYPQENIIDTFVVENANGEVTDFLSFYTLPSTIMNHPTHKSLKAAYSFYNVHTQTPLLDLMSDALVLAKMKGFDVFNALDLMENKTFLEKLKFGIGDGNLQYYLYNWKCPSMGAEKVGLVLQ
UniProt P41148, 22-804 limits assumed: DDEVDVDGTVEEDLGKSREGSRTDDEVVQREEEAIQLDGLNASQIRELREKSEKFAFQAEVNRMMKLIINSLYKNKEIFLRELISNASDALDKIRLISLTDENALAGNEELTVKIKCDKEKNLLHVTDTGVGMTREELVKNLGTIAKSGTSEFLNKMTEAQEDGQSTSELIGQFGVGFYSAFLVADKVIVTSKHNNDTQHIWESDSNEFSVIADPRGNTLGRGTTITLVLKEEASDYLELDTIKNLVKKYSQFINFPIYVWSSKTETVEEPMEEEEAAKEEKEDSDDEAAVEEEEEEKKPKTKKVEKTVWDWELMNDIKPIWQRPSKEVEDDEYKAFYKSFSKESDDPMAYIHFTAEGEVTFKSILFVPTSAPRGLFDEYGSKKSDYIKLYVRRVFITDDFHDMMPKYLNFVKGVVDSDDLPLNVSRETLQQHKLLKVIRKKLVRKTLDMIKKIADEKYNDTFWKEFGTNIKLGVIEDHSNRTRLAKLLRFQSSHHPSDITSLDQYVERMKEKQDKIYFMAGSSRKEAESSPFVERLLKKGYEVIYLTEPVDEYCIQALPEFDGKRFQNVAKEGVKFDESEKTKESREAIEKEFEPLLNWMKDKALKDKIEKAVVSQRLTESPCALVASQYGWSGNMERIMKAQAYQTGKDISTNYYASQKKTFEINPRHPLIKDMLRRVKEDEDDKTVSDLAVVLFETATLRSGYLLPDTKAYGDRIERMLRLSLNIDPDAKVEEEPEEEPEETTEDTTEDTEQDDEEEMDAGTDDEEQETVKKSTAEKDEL
UniProt P29074, whole entry: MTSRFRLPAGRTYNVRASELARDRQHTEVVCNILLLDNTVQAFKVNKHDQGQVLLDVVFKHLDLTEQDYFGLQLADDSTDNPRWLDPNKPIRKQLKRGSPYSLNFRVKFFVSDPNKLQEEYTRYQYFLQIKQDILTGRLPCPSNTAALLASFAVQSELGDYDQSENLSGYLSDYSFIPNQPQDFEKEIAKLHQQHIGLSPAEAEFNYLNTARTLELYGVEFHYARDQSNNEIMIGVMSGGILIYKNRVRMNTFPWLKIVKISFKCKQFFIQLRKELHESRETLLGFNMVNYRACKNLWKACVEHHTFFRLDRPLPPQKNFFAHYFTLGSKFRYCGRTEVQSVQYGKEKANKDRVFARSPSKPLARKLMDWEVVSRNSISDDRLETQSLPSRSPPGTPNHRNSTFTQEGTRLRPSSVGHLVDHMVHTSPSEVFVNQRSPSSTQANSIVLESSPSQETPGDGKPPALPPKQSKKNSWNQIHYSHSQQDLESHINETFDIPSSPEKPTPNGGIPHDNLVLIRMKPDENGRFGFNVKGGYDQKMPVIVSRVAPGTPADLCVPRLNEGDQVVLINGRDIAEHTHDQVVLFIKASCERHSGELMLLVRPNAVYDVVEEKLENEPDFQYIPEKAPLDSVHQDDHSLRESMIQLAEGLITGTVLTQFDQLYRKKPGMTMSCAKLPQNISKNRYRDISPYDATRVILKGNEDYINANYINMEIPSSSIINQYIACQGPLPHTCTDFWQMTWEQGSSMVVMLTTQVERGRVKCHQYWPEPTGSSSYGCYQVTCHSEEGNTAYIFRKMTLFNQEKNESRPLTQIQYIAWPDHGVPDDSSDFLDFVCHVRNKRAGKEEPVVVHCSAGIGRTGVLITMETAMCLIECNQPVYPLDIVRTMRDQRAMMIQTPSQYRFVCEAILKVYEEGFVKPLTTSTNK
UniProt P00533, 25-1210 T790M/L858R limits assumed: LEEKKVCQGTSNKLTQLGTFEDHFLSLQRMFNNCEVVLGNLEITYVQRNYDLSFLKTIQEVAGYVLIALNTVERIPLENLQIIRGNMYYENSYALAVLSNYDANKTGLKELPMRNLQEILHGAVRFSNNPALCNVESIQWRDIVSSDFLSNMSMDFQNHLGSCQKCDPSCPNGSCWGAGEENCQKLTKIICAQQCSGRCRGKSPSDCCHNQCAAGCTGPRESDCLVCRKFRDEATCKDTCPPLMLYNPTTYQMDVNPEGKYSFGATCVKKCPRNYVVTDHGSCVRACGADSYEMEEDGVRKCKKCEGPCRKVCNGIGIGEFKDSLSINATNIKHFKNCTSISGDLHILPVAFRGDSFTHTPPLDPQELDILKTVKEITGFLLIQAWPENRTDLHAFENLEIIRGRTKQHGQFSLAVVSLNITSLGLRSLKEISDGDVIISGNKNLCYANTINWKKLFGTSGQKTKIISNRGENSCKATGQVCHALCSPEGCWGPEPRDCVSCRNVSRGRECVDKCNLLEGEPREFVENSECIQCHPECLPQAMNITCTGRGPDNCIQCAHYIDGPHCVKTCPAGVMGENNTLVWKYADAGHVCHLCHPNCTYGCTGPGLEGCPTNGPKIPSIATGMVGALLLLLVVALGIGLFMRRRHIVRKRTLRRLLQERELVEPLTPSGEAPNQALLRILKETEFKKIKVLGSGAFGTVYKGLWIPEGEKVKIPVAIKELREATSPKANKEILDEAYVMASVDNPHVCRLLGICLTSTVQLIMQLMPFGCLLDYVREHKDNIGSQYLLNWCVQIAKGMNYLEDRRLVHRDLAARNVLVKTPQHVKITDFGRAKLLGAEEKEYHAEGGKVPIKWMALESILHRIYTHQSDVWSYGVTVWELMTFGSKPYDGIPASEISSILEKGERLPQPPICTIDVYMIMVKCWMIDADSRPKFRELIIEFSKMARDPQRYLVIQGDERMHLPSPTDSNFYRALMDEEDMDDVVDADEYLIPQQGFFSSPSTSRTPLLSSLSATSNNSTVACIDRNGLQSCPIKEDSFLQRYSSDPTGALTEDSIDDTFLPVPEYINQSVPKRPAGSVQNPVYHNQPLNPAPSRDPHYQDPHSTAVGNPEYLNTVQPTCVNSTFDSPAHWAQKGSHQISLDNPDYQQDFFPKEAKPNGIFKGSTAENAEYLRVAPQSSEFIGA
UniProt P36888, 27-993 limits assumed: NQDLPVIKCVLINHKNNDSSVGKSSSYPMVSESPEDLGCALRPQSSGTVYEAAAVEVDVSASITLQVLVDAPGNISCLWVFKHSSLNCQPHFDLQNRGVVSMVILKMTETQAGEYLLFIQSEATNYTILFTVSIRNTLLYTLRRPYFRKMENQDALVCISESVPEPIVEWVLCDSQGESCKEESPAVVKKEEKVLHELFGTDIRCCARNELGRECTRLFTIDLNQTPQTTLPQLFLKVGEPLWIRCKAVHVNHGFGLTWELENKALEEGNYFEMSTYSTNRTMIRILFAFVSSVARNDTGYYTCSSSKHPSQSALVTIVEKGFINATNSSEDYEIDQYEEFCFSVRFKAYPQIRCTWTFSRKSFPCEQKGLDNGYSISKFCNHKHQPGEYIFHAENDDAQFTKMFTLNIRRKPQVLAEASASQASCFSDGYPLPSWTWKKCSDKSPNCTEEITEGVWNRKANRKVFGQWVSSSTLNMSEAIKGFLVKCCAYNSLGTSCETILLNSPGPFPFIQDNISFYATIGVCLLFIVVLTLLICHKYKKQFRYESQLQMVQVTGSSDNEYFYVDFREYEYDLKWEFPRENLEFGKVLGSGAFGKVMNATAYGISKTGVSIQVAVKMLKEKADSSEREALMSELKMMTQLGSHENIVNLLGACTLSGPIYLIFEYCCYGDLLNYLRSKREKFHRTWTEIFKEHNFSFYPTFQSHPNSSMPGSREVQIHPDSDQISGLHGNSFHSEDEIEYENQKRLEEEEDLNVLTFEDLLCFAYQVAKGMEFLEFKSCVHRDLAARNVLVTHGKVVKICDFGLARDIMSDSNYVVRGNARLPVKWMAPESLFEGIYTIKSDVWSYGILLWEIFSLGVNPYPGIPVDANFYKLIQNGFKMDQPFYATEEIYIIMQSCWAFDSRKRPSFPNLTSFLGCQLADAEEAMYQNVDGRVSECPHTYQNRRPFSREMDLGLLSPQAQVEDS
UniProt O35453, 1-416 isoform 2: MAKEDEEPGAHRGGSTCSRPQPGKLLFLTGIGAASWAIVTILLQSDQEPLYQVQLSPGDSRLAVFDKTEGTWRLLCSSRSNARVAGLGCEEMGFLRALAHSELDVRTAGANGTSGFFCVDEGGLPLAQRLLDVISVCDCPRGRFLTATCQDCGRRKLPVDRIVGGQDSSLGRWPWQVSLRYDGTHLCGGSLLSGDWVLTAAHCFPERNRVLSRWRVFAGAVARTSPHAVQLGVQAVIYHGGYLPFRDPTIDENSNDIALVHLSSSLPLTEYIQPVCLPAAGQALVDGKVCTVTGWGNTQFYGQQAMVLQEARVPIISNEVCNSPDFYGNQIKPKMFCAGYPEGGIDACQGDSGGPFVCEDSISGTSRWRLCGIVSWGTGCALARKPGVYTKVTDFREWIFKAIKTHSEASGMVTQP
UniProt P10636, whole entry, looked up: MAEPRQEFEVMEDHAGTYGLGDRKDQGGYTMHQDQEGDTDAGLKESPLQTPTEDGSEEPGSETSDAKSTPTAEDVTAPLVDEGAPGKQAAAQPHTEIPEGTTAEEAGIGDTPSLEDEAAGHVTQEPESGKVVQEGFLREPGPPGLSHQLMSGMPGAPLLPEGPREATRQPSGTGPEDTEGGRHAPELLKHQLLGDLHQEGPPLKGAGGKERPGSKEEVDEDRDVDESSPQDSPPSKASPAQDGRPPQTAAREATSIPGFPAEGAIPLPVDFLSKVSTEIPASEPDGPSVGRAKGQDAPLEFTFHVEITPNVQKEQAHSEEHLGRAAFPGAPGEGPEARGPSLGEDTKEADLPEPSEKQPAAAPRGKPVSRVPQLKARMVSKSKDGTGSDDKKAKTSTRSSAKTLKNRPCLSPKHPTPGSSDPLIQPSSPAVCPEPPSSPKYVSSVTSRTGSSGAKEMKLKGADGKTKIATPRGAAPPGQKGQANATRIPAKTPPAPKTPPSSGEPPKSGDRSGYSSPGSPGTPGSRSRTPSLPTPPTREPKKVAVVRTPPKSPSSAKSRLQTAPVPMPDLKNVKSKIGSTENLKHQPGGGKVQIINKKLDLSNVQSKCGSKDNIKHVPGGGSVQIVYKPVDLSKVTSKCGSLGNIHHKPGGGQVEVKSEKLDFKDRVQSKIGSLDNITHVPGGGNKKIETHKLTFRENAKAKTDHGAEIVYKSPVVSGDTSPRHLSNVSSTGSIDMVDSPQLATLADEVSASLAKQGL
UniProt Q13304, whole entry: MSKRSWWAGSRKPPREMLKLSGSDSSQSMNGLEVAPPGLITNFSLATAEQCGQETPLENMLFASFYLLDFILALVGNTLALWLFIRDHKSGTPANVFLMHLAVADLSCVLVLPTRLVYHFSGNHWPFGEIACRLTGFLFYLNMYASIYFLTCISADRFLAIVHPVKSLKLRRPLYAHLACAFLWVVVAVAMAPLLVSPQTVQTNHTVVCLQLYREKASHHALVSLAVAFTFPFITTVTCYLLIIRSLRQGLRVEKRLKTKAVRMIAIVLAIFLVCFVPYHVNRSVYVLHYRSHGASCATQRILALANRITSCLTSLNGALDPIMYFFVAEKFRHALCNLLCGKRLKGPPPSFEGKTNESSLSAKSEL
UniProt Q9WTL7, whole entry: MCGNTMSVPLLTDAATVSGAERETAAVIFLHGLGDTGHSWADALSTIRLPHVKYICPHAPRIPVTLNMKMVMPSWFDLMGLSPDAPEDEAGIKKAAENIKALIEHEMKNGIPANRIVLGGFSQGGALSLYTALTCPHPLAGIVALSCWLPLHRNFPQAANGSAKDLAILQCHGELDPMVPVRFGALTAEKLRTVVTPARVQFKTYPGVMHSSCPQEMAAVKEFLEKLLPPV
UniProt P04181, 26-439 limits assumed: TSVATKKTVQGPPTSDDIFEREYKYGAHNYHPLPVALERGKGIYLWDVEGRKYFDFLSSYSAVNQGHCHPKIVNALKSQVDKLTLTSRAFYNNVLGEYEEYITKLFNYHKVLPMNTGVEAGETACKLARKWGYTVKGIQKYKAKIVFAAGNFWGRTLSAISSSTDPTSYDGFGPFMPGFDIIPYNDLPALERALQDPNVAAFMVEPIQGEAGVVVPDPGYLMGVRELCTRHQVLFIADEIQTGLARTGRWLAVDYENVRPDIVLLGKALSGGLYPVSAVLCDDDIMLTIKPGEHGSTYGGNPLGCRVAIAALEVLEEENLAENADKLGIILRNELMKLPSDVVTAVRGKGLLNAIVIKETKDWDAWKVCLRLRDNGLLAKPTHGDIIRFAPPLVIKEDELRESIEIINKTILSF

| Compound | target or system | assay | system | setting | scale | measurement | result |
| --- | --- | --- | --- | --- | --- | --- | --- |
| Cc1c(O)cc2c(c1C)O[C@](C)(CCCC(C)C)CC2 | – | refers to: Akt Ser473 | athymic nude mouse, PC-3-luc xenograft, tumour | intraperitoneal, 50 mg/kg daily, 21 days | – | phosphorylation | decreased |
| Fc1cccc(-n2cnc3c(NCc4nc5cc(Cl)ccc5[nH]4)nc(N4CCNCC4)nc32)c1 | SGK1 (Homo sapiens, UniProt O00141) | KINOMEscan competition binding | – | 10 µM | baseline: control | remaining binding | 1% |
| CC[C@@H]1C(=O)N(C)c2cnc(Nc3ccc(C(=O)NC4CCN(C)CC4)cc3OC)nc2N1C1CCCC1 | Protein polybromo-1, BD3 (PBRM1, Homo sapiens, UniProt Q86U86) | – | – | 10 µM | – | delta Tm | -0.04 ± 0.31 °C |
| CC(=O)[C@]1(O)CC[C@@H]2[C@H]3C[C@@H](C)C4=CC(=O)CC[C@@]4(C)[C@H]3[C@@H](O)C[C@]21C | NR3C1 | nuclear translocation, agonist, enzyme fragment complementation | – | – | – | Hill slope | 0.65 |
| COc1cc(CC(=O)NCC(NC(=O)C(CCCNC(=O)c2cccc(I)c2)NC(=O)C(Cc2ccc(C(F)(F)P(=O)(O)O)cc2)NC(=O)c2ccc(C)c(Br)c2)C(N)=O)ccc1O (stereo not drawn) | Tyrosine-protein phosphatase non-receptor type 4 (Homo sapiens, UniProt P29074) | enzyme activity | – | 10 µM | – | inhibition | no inhibition |
| O=C1CCC(N2C(=O)c3cccc(NCCOCCOCCOCCN4CCN(c5ccc(-c6ccc7c(c6)C(=O)N(C(C(=O)Nc6nccs6)c6ccccc6)C7)cn5)CC4)c3C2=O)C(=O)N1 (stereo not drawn) | EGFR (Homo sapiens, UniProt P00533, L858R/T790M) | degrader, Western blot | H1975 | 0.1 µM | – | time to maximal degradation | 24 to 48 h |
| O=C1C=C(NCCc2cc(Br)c(O)c(Br)c2)C(=O)c2ncccc21 | Ezrin (Ezr, Mus musculus, UniProt P26040) | inhibitor, immunoprecipitation and immunoblotting, refers to: endogenous ezrin threonine 567 | K7M2 mouse osteosarcoma cells | 10 µM, 6 h | – | ezrin phosphorylation | inhibited |
| CC(C)C[C@H](NC(=O)[C@H](Cc1c[nH]cn1)NC(=O)[C@H](C)NC(=O)CN)C(=O)N[C@H](C(=O)N[C@@H](CCCNC(=N)N)C(=O)N[C@@H](CCCNC(=N)N)C(=O)N[C@@H](Cc1ccc(O)cc1)C(=O)O)C(C)C | NMT1 | substrate | – | – | – | Km | 16.4 µM |
| Cn1cc2c(nc(NCCCCCNC(=S)Nc3ccc(-c4c5ccc(=O)cc-5oc5cc(O)ccc45)c(C(=O)O)c3)n3nc(-c4ccco4)nc23)n1 | ADORA1 (Homo sapiens, UniProt P30542) | binding | CHO | 10 µM, added: [3H]R-PIA | – | inhibition | 9 ± 5% |
| COC(=O)c1c(O)cc(O)c(Cl)c1CCc1ccc(OC)cc1Cc1ccccc1 | HSP90B1 | fluorescence polarization | – | added: FITC-geldanamycin tracer | baseline: Grp94 over Hsp90α | selectivity ratio | 4 fold |
| CCN1CCN(Cc2ccc(NC(=O)c3ccc(C)c(Oc4ncnc5cc(OC)c(OC)cc45)c3)cc2C(F)(F)F)CC1 | FLT3 (Homo sapiens, UniProt P36888) | KINOMEscan competition binding | – | 1.0 µM | – | residual probe binding | 0.6% |
| C[C@H](NC(=O)[C@H](CCCCN)NC(=O)[C@H](CO)NC(=O)[C@H](CO)NC(=O)[C@H](CCCCN)NC(=O)[C@H](CCCNC(=N)N)NC(=O)CN)C(=O)N[C@@H](CCCCN)C(=O)O | NMT1 | substrate | – | – | – | Km | 1.2 µM |
| Cc1cccc(C2Nc3cccc4cccc(c34)N2)c1 | Serine protease hepsin (Hpn, Mus musculus, UniProt O35453) | hepsin activity | – | 50 µM | baseline: vehicle | inhibition of pericellular proteolysis | ~60% |
| c1ccc2[nH]c3c(N=NC4=NCCN4)c4ccccc4c-3nc2c1 | NQO2 (Homo sapiens, UniProt P16083) | from IC50 by Cheng-Prusoff | – | – | – | binding free energy | -8.4 kcal/mol |
| CC(C)c1cc2c(N3CCN(C4=NCC(C)(C)S4)CC3)ncnc2s1 | Menin (MEN1, Homo sapiens, UniProt O00255, M278K) | thermal shift | – | concentration not given | – | binding | no binding |
| Fc1cc(-c2ccc3c(n2)[nH]c2ccncc23)ccn1 [isotope labelled] | Microtubule-associated protein tau, paired helical filaments (MAPT, Homo sapiens, UniProt P10636) | radioligand binding | PHF tau brain homogenate | 200 nM | higher = more binding | specific binding | 18.2 a.u. |
| O=C(CCl)N[C@@H](Cc1ccccc1)C(=O)N1CCCC[C@H]1C(=O)NCCc1c[nH]c2ccc(F)cc12 | PIN1 (Homo sapiens, UniProt Q13526) | thermal shift | – | second of two transitions | – | ΔTm | -14.3 ± 0.28 °C |
| C[C@H](NC(=O)[C@H](CC(N)=O)NC(=O)CN)C(=O)N[C@@H](CCC(N)=O)C(=O)N[C@@H](CCC(=O)O)C(=O)N[C@@H](CCCNC(=N)N)C(=O)N1CCC[C@H]1C(=O)N[C@@H](CO)C(=O)O | NMT1 | substrate | – | – | – | Km | 1.4 µM |
| CC[C@H](C)[C@H]1O[C@]2(CC[C@@H]1C)C[C@@H]1C[C@@H](C/C=C(\C)[C@@H](O[C@H]3C[C@H](OC)[C@@H](O[C@H]4C[C@H](OC)[C@@H](O)[C@H](C)O4)[C@H](C)O3)[C@@H](C)/C=C/C=C3\CO[C@@H]4[C@H](O)C(C)=C[C@@H](C(=O)O1)[C@]34O)O2 | Nuclear receptor subfamily 2 group C member 2 (Homo sapiens, UniProt P49116) | SPR imaging | immobilized compound microarray | added: TR4-LBD 600 nM analyte | – | koff | 8.29e-06 s⁻¹ |
| C[C@H](NC(=O)[C@@H](NC(=O)[C@H](CCCCN)NC(=O)[C@H](CO)NC(=O)[C@H](Cc1ccccc1)NC(=O)[C@H](CCC(N)=O)NC(=O)[C@H](C)NC(=O)CN)[C@@H](C)O)C(=O)O | NMT1 | substrate | – | – | – | Km | 38.4 µM |
| O=C(Nc1ccc(Cl)cc1)C(NS(=O)(=O)c1cccs1)c1ccccc1 (single isomer, unassigned) | GPR17 (Homo sapiens, UniProt Q13304) | β-arrestin recruitment, antagonist, HTRF | 1321N1 expressing target | – | – | Schild slope | 0.81 |
| C[C@H]1C[C@H]2[C@H]3CCC4=CC(=O)C=C[C@@]4(C)[C@]3(F)[C@H](O)C[C@]2(C)[C@@]1(O)C(=O)COP(=O)(O)O | NR3C1 | nuclear translocation, agonist, enzyme fragment complementation | – | – | – | maximal activity | 200% |
| O=C(Nc1cccnn1)N1CC(Oc2ccc(-c3ccccc3F)cn2)C1 | – | refers to: plasma endocannabinoids | human, plasma | oral, single dose | – | time lag between PK and PD maxima | ~2 h |
| CC(C)C[C@H](NC(=O)[C@H](C)NC(=O)[C@H](CO)NC(=O)[C@H](CC(N)=O)NC(=O)[C@H](CCC(=O)O)NC(=O)[C@H](CO)NC(=O)CN)C(=O)N[C@@H](CCCCN)C(=O)O | NMT1 | substrate | – | – | – | Km | 0.8 µM |
| O=C(ON1C(=O)C2CN(C(=O)N3CCOCC3)CCN2C1=O)N1CCC(CCc2ccc(Cl)cc2)CC1 (stereo not drawn) | Acyl-protein thioesterase 2 (Mus musculus, UniProt Q9WTL7) | enzyme activity, inhibitor, gel-based ABPP | C57BL/6 mice, liver and kidney | intraperitoneal, 4 h, not brain | – | dose for near-complete inhibition | 5 mg/kg |
| COC(=O)c1c(O)cc(O)c(Cl)c1CCc1cccc(OC)c1Cc1ccccc1 | HSP90B1 | fluorescence polarization | – | added: FITC-geldanamycin tracer | baseline: Grp94 over Hsp90α | selectivity ratio | 19 fold |
| N[C@H]1C=C(C(=O)O)CC[C@@H]1F | OAT (Homo sapiens, UniProt P04181) | enzyme inactivation, mechanism-based inactivator | – | – | – | KI | 31 ± 7 µM |

For quick reference, copied from above:
| Compound | target or system | assay | system | setting | scale | measurement | result |
| --- | --- | --- | --- | --- | --- | --- | --- |
| Cc1c(O)cc2c(c1C)O[C@](C)(CCCC(C)C)CC2 | – | refers to: Akt Ser473 | athymic nude mouse, PC-3-luc xenograft, tumour | intraperitoneal, 50 mg/kg daily, 21 days | – | phosphorylation | decreased |
| O=C(Nc1ccc(Cl)cc1)C(NS(=O)(=O)c1cccs1)c1ccccc1 (single isomer, unassigned) | GPR17 (Homo sapiens, UniProt Q13304) | β-arrestin recruitment, antagonist, HTRF | 1321N1 expressing target | – | – | Schild slope | 0.81 |
| O=C(CCl)N[C@@H](Cc1ccccc1)C(=O)N1CCCC[C@H]1C(=O)NCCc1c[nH]c2ccc(F)cc12 | PIN1 (Homo sapiens, UniProt Q13526) | thermal shift | – | second of two transitions | – | ΔTm | -14.3 ± 0.28 °C |
